# Measured values pooled from the literature.
# Every numbered part comes from another study and shows a few of its results, in no order.

# Block 1 — method: RNA Bind-n-Seq; form: RNA; matrix: in vitro; tested at: 365 nM; reference: no-protein control; reading: higher = stronger binding
# Target: RNA binding protein fox-1 homolog 2, RRM domain, GST-SBP tag (RBFOX2, Homo sapiens, UniProt O43251-10, residues 100-194)
# Setting: natural RNA segment, single round, ends assumed
# Residues (chain): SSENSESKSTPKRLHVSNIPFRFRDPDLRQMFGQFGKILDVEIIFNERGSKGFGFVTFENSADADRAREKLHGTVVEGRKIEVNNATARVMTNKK
Oligonucleotide,RBNS enrichment (R)
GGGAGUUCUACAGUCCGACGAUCUUAAGUUAUCUGAACAAAUACUUUUGAAAAAAAAGUUUGUUGUAUAGUCAAAACAAAUCGGUGCCACCCGGCCGUGACAAAUCCUAGUAGAUUCUGUGCAUGUGGAGCGGUGGAAUUCUCGGGUGCCAA,6.71
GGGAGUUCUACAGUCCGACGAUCCAAAUGAGUCAGUAUUCUUGGGCAGAAGUGAACAUCCCAAGGAUUCAACAGGGAAUAAACAGGCUCUAGCACAUUAAGGAUGUGGCCUAGGCUGAGUGUUACCUUAAAAUUGGAAUUCUCGGGUGCCAA,0.465
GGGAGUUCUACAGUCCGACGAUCACCUCAUGGGAUGGGCAAUGCACACACUGGCCCUUAUUUUUCCCUUUCAAAUAAAACACCAGUCAGGUACCUUUAUCCCAGUCUUAACUGUCCCAAAUCUGGAAGGUCCAUGGAAUUCUCGGGUGCCAA,0.715
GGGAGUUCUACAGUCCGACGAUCCUCACUAGCUCGCGGGGCCACUUGCUGCCCAUGUGACGAAUAACAGAAGAUCUUAUCUUGCCAGGCCGUGGAGAGCUACAAGAAAGAUUCCUGAGAAAUGUCCAACUGCUUGGAAUUCUCGGGUGCCAA,1.66
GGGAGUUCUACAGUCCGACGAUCAUGGAGUUGGAGUUCAUUCAUAUUACAAUAUUUGUGUGCUAAACGUGUAUGUUUUUCAGUUCAAAGUCAUGAUGUUUUUAAAAUCUUAUUAAAGUUUCAAAAAUCUGAAGUGGAAUUCUCGGGUGCCAA,0.617
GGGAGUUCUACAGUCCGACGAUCAAUUGUUAUGUGAAAUUUUAGGGUAACGGUGAUUAAGCUCUGCACUGGUAUUUGGAAUUUUUUUUCCUUUAAUCUUUGGUUUAAAAACAUCUUAAAAUCACUUAUAUACAUGGAAUUCUCGGGUGCCAA,0.775
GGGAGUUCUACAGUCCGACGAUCGCAAUUACGUCAUCACCCAGCUGAUUCCGGGUGGUUGGCAAACUCAUCGUGUCUGUCCUGAGAGGCUCCACAAUGCCCACCCGCAUCGCCAUUCUGUAGUCUUCAGGGUCUGGAAUUCUCGGGUGCCAA,0.397
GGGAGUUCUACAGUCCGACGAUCUACCAUACAACAAAUAACACCAGGAAACUCUGGAAUGAACAGUAUCACAUUCUAGGAAGCAAUGGCAGGUGACAUCACUAUUAUAAUAGGAACAAUGCAUUCUAAUGGUAUGGAAUUCUCGGGUGCCAA,0.486
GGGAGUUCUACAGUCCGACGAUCUAGGGUACAUGUGCACAUUGUGCAGGUUAGUUACAUAUAUAUACAUGUGCCAUGCUGGUGCGCUGCACCCACUAACUCGUCAUCUAGCAUUAGGUAUAUCUCCCAAUGCUUGGAAUUCUCGGGUGCCAA,0.824
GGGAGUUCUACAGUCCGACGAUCACUUGGGCUGUCAUCUUUGAGCUGUUUACCAAAAUACAGACCAUUAUUGAAGAAAAACAAAUUAUCUAUUUUGUUUUCCCCCAUCUAACAUGAUAGUGCCCCCAACCAGGUGGAAUUCUCGGGUGCCAA,0.35
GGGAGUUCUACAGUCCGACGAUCCGGACACCACCUAGCUGCAGCAAACAUCUGGCCAGCAGCAGCUUUCAAUAAAUCUACAGCAAACAAAGCUUAGCAAAUGUUUUAUUUGUGUUGAGUAUGCAGUGUCUCUGUGGAAUUCUCGGGUGCCAA,0.26
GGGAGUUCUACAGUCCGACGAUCCAAAAAUCAACAAUGCACAACUUACAAAGUGUUCAUUCUAGGGACAAAAUUAAAUAAACAGAAUGUCCCCAGGAGUCAGCAGGUCACAGUCUGGCUUUGUGAUGGUUGACUGGAAUUCUCGGGUGCCAA,0.449

# Block 2 — method: RNA Bind-n-Seq; form: RNA; matrix: in vitro; tested at: not given; reference: input RNA pool; reading: higher = stronger binding
# Target: RING finger protein unkempt homolog, zinc fingers 1-6, GST-SBP tag (UNK, Homo sapiens, UniProt Q9C0B0, residues 30-357)
# Setting: RNA with constant flanks, human and mouse sites, ends assumed
# Residues (chain): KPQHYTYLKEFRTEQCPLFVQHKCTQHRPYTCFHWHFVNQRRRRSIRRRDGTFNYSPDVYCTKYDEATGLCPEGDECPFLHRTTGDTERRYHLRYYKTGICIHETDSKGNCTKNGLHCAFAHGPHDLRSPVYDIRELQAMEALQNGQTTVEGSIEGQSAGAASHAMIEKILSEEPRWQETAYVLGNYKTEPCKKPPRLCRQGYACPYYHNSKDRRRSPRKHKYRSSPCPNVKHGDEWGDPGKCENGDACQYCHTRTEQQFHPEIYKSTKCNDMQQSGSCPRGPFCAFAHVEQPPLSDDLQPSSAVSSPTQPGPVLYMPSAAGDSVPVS
Oligonucleotide,bound/input enrichment [ratio]
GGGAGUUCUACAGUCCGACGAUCGCUACUUUAACCUAUGAUAAUUAUUUACAAAAUUUUAACACUAACCAAACAAUGCAGAUCUUAGGGAUGAUUAAAGGCAGCAUUUGAUGAUAGCAGACAUUGUUACAAGGACAUGGUGAGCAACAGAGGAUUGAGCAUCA,7.13
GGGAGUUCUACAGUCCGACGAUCUACCUCCAGAAGGCACUACUUCUAUCGUAGGGCGAGUCUAAUUGUUAGACAUUUCUUACUUAUAGUGAUUGGAUUCUGCUUUCCUAUGACUUCUGCCUACUGGGUCUUGUUUUGUUCCUUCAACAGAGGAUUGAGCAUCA,0.357
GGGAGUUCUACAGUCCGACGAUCAAAGAACCUCUCUCUGAUGAAGAUGAGGAAGACAAUGAUGAUGUUGAACCCAUUUCUGAAUUUCGAUUUGUGCCCAGUGAUAAGUCAGCAUUGGAGGCGAUGUUCACAGCAAUGUGUGAGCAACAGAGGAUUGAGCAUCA,0.277
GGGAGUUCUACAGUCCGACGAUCCUUGAUGGCCUCCAAGCCGGAUAUCGACACAUUUCCCUUCGAAAUGAGGGAAAUAAACCAUUAUCACUACCAACAAUUUUCUGCAAUAUUGUUCUUAAAACAUAUGUGCCUGAUGGAUUUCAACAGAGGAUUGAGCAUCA,0.192
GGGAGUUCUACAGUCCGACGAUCUCCCCUUAUGAUCAGGCGGCUUGGAUUUUGAAAGCACGGGCGCUGACAGAGAUGGUGUACAUAGAUGAAAUUGAUGUGGACCAGGAAGGAAUUGCUGAAAUGAUCCUGGAUGAAAAUGCUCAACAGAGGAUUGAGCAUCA,0.871
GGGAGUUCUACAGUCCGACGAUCAUCAAGUAUUUUGGGGAUAUUAUUAGCGUGGGACAGAGAUUGUUGCAAGGGGCCCGGAUUUUAGGAAUUCCUGUUAUUGUAACAGAACAAUACCCUAAAGGUCUUGGGAGCACGGUUCAACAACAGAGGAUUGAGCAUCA,0.304
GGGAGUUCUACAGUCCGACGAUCAUGUUGGGGUCUAGUAUCCAGACCUUUGCACCUUCCCAGGAUGUAAGCAGUGACAUCCAUCCUGAUGAAGCAGCAGAAAAGGAGCUGACUUCAGUUGUGGCAGAAAAUGGCACUGGCUUGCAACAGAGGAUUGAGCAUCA,0.0299
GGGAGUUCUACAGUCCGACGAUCCGGGAUGAGGAGGUCAGCUCUGCUGACAUCAGUAGUUCGUCUGAAGUGAUUUCGCAGCACCUAGUAUCUUACAGGAACAUCGAAGAGCUUCAGCAGCAGAAUCAGCGUCUGCUAUUCGCUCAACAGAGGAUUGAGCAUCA,0.216
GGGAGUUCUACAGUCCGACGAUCAAUGAUGAUGCAAUGUUGAUCGAGAAGUUCGUGGACACUCCAAGGCAUGUAGAAGUCCAGGUGUUUGGUGAUCACCAUGGCAACGCAGUGUACUUGUUUGAAAGAGACUGUAGUGUGCAGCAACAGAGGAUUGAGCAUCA,0.322
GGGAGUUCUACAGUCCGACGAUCAGGGGGAGGCCUCGGACUUCUCGCUGGCCUGGGAUUCCUCUGUGGCAGCAGCAGGAGGCCUGGAAGGAGAGCCAGAGUGUGAUCGGAAAACCAGCCGUGCGCUGGAAGACAGGAACAGCGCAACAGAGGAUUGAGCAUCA,0.269
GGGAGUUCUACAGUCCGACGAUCCAAAAUUUAAGACCAUGAUGAAAUUUCAGUUUCAUUCAAAUGUUACCUAAAAUUUAUGGUGUCAGAAUAAAGGGAGAUCAUAGUGAGUUAAUUUGAUAUUCAUAUCCUGGAAGUAUACAUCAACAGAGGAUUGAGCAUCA,8.34

# Block 3 — method: protein-binding microarray; form: double-stranded DNA, one strand shown; matrix: in vitro; tested at: 940 nM top; setting: 60-bp whole probe; added: salmon DNA 0.4 mg/ml; reference: random background probes; reading: higher = stronger binding; constant ends, left off below: GCCTAGCAC … GTCTTGATTCGCTTGACGCTGCTG
# Target: Interferon regulatory factor 5, full length, phosphomimetic (IRF5, Homo sapiens, UniProt Q13568-2, residues 1-514, S451D/S453D/S456D/S462D)
Oligonucleotide,fitted relative affinity
GACGAACTGGGGACTGGAGGCGTGCTA,-0.219 z-score
GTAGTTTTCATTATTGTTTCGTGCTAG,2.79 z-score
TCAGTTCCCTATATAAGACTGTGCTAG,0.5 z-score
GGTTTTCTCTGGTTCTTGCTGTGCTAG,1.86 z-score
GCTGTTCTCAGACTGGGTGCGTGCTAG,0.0468 z-score
TCATTTTTTTCTAACTAACTGTGCTAG,1.32 z-score
AAAATGATTGGTTGAACATGGTGCTAG,0.075 z-score
TCATTTCTCTGCTACCCTACTGTGCTA,1.93 z-score
TACGATATCGGGACTGGAGACGTGCTA,-0.316 z-score
GACGCTTTCAGTCTCGAGACGTGCTAG,2.73 z-score
GACGGTATCGGGTTTCTGGACGTGCTA,4.09 z-score
TTAGGTTCCCCTTTCCTTTAGTGCTAG,0.85 z-score
TTGGATATCGGGACTGGATTAGTGCTA,-0.148 z-score
ATAGGTATCGGGTTTCGGTTAGTGCTA,7.87 z-score
GACGGTTTCGGTTTCGTGACGTGCTAG,13 z-score
TAGTTTTTACTTTCTGAATGGTGCTAG,2.16 z-score
TTAGGTTTCGGGACTGCGTTAGTGCTA,8 z-score
TTAGGTCTCGGACTGGCTTAGTGCTAG,1 z-score
TTAAGTTTCGGGTTTCGGTTAGTGCTA,11.1 z-score
TTAGGTATCGACTTTAGGTTAGTGCTA,4.78 z-score
TTTCGTTACTTCCTCAAACAGTGCTAG,10.5 z-score
GACAGACTGCTACTGCTGACGTGCTAG,-0.584 z-score

# Block 4 — method: RNAcompete; form: RNA; matrix: in vitro; tested at: 20 nM; setting: 7-mer, probes averaged, single round; reference: mean of 7-mers; reading: higher = stronger binding
# Target: PABPC1L2, full length, GST fusion (mouse, UniProt A0ABA7IW68)
# Target sequence (chain): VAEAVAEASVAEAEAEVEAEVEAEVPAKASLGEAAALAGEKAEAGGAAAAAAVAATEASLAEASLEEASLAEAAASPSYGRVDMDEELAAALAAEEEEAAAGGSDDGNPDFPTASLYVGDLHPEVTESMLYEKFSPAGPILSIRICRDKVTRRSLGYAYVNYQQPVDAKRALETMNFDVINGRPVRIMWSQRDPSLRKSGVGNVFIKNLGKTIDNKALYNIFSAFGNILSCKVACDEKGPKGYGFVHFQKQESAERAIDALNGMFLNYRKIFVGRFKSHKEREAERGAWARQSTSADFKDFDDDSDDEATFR
Oligonucleotide,7-mer Z-score
AACCCCG,-0.271
CGAUUCU,-0.199
CACCUGC,-0.115
AGCUGAA,0.0478
CGAUCUG,-0.217
CAUUGUC,-0.316
UGCCGAC,-0.0953
UAAUCUC,-0.233
UUAACGC,-0.121
UGGCGAG,0.131
GCUGGCU,-0.128
UACAUAA,0.582
GCGCGGU,-0.0645
GAUAUAU,-0.0826
AGCCUCA,-0.257
CAUGAAC,0.131
UGCGGGU,0.0569

# A few entries again (block 4):
Oligonucleotide,7-mer Z-score
UGCCGAC,-0.0953
CGAUUCU,-0.199
AACCCCG,-0.271
CAUGAAC,0.131
CAUUGUC,-0.316
CACCUGC,-0.115
CGAUCUG,-0.217
GCUGGCU,-0.128
